Measurements from different studies.
Protocols differ between the studies behind these lines.
Target: Phosphatidylinositol 5-phosphate 4-kinase type-2 gamma (PIP4K2C, Homo sapiens, UniProt Q8TBX8)

The remaining binding of `COc1c(Cl)cccc1Nc1c(-c2ccncc2C#C[C@@]2(C)CCCN2C(=O)/C=C/CN(C)C)[nH]c2c1C(=O)NCC2` is reported as 100% (binding, competition with immobilised ligand; 3 µM).
`CCN1CCN(Cc2ccc(C(=O)Nc3ccc(C)c(NCc4cnc5[nH]ccc5c4OC)c3)cc2C(F)(F)F)CC1` gave a remaining binding of 20% (binding, competition with immobilised ligand; 1 µM).
The remaining binding of `Cc1cnc2nc1Nc1cccc(c1)COC/C=C/COCc1cc(ccc1OCCN1CCOCC1)N2` is reported as 43% (binding, competition with immobilised ligand; 0.1 µM).
`Cc1ccc(-c2c(/C=C(\C#N)C(=O)NC(C)C)n(CCCO)c3ncnc(N)c23)cc1` has a remaining binding of 95% (cell-free assay, competition with immobilised ligand; 1 µM).
With `CCC(O)(C#Cc1ccc2[nH]c3c(c2c1)-c1nc(N)ncc1CCC3)CC` the remaining binding was 15% (binding, competition with immobilised ligand; 1 µM).
The remaining binding of `COc1cc(Nc2nccc(-c3cnn4nc(OC)ccc34)n2)cc(C(F)(F)F)c1` is reported as 56% (binding, competition with immobilised ligand; 1 µM).
`Cn1cncc1C#Cc1ccc2[nH]c3c(c2c1)-c1nc(N)ncc1CC3` has a remaining binding of 5.9% (binding, competition with immobilised ligand; 1 µM).
`C=CC(=O)N1CCCC(n2c(=O)c3ncccc3n(Cc3ccc(Oc4ccccc4)cc3)c2=O)C1` (centres unmarked) has a remaining binding of 99% (cell-free assay, competition with immobilised ligand; 1 µM).
With `CC(C)=CC1OC(C)(C)C2C=C3C(=O)C(Cl)=CC(O)C3C3C(O)C4OC4C(=O)C132` (centres unmarked) the remaining binding was 86% (cell-free assay, competition with immobilised ligand; 10 µM).
For `C=CC(=O)N1CCc2ccc(-n3c(=O)ccc4cnc5ccc(-c6cnn(C)c6)cc5c43)cc21`, the remaining binding was 100% (KINOMEscan; 1 µM; baseline: DMSO control).
`CC(C)C(O)C#Cc1ccc2[nH]c3c(c2c1)-c1nc(N)ncc1CCC3` (centres unmarked) has a remaining binding of 1.9% (binding, competition with immobilised ligand; 1 µM).
`CNC1C[S+]2CC[S+]3CC[S+](C1)[Ru-4]321([N]=C=S)[n]2c3ccc(OC)cc3c3c4c(c5cc(F)c[n+]1c5c32)C(=O)NC4=O` (centres unmarked) gave a remaining binding of 95% (KinomeScan; 0.1 µM; baseline: untreated).
With `Nc1ncc2c(n1)-c1c([nH]c3ccc(C#CC4CC4)cc13)CCCC2` the remaining binding was 88% (binding, competition with immobilised ligand; 1 µM).
With `CNC(=O)C1CCN(c2cc(C)c(F)cc2NC(=O)c2ccc(-c3cc(O)ccc3C)c(C)c2)CC1` the remaining binding was 100% (binding, competition with immobilised ligand; 1 µM).

Some of these lines once more:
`Cc1ccc(-c2c(/C=C(\C#N)C(=O)NC(C)C)n(CCCO)c3ncnc(N)c23)cc1` has a remaining binding of 95% (cell-free assay, competition with immobilised ligand; 1 µM).
